Published values from different studies.
Numbered parts are unrelated; each lists some results of a single study. Several values in a cell are separate wells, animals, samples, runs or records.

Sample 1
Organism: Arabidopsis thaliana
Strain: Col-0
Concentration: 100 µg/mL
Notes: seed germination, single repetition
Quantity: hypocotyl length
CN1C(=O)C(O)(C(=O)O)Oc2cc(F)ccc21 (stereo not shown): 1.32 cm and 1.36 cm and 1.33 cm and 1.35 cm and 1.34 cm
O=C(O)C1(O)Oc2cc(Br)ccc2N(Cc2ccccc2)C1=O (stereo not shown): 0.81 cm and 0.85 cm and 0.77 cm and 0.9 cm and 0.83 cm
COc1ccc2c(c1)OC(O)(C(=O)O)C(=O)N2Cc1ccccc1 (stereo not shown): 0.95 cm and 1.02 cm and 1.05 cm and 1 cm and 0.91 cm
O=C(O)C1Oc2cc(F)ccc2N(Cc2ccccc2)C1=O (stereo not shown): 1.55 cm and 1.54 cm and 1.52 cm and 1.53 cm

Sample 2
SMILES: C[C@@H]1CN(c2ccc(-c3cc(C(=O)NCCOCCOCCOCCOCCOCCOCCNC(=O)/C=C/c4[nH]cc(C(=O)N[C@@H](CC(N)=O)c5ccc(F)c(Cl)c5)c4-c4ccc(Cl)cc4F)ccc3F)cc2NC(=O)c2ccc(F)cc2C(F)(F)F)C[C@H](C)N1C
Read-out: thermal unfolding
Technique: differential scanning fluorimetry
Concentration: 5.5 µM
Direction: higher = more unfolded
Quantity: SYPRO Orange fluorescence
WDR5: WD repeat-containing protein 5 (WDR5, Homo sapiens, UniProt P61964)
DCAF1: DDB1- and CUL4-associated factor 1 (DCAF1, Homo sapiens, UniProt Q9Y4B6)
UniProt Q9Y4B6, sequence (whole entry, looked up): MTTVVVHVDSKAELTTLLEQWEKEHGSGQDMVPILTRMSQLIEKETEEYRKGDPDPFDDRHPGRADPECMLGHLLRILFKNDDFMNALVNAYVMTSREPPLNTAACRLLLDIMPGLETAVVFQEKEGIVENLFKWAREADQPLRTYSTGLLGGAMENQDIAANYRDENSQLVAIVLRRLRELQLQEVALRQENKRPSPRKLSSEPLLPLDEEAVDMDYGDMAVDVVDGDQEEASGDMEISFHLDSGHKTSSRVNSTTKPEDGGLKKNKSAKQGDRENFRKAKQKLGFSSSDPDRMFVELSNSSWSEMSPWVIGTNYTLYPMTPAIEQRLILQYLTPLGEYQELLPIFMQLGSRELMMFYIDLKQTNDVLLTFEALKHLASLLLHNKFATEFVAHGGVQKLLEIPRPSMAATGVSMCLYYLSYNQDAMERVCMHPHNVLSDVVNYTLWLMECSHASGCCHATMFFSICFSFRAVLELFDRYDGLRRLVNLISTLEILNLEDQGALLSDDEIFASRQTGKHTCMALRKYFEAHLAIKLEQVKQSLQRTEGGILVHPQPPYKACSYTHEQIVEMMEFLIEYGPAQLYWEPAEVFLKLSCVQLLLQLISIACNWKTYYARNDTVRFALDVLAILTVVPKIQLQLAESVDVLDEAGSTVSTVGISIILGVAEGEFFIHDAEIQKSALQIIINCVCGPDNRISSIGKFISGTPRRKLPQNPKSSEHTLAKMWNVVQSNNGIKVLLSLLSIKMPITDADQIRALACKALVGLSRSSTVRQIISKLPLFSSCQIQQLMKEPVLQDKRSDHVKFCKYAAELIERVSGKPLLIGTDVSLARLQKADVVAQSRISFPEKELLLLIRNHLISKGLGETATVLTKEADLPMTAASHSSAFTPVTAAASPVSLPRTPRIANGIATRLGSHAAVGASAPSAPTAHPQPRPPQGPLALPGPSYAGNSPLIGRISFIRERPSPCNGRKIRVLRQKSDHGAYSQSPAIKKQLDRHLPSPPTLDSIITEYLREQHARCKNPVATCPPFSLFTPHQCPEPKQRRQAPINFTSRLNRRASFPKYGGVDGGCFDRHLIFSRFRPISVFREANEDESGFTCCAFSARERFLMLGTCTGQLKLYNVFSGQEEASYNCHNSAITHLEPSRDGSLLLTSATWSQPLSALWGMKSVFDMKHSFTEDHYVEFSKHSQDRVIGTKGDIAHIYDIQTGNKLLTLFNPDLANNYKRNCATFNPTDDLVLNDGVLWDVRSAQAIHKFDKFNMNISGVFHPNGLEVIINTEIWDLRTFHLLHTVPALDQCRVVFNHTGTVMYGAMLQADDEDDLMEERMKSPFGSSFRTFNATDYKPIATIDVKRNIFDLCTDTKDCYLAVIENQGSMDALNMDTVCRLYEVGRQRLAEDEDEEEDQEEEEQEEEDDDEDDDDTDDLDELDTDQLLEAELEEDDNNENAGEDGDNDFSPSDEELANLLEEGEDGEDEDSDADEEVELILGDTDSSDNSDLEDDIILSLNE
WDR5; 29.8 °C: 13600 a.u.
WDR5; 82.21 °C: 65600 a.u.
DCAF1; 61.81 °C: 52400 a.u.
WDR5; 65.81 °C: 17200 a.u.
DCAF1; 68.21 °C: 50100 a.u.
WDR5; 90.01 °C: 55100 a.u.
WDR5; 77.21 °C: 57700 a.u.

Sample 3
SMILES: Cc1ncsc1-c1ccc(C(CO)NC(=O)C2CC(O)CN2C(=O)C(C(C)C)n2cc(-c3ccc(COc4c(-c5c(C)c(F)cc6[nH]ncc56)c(C5CC5)cc5c(N6CC7CC6CN7)nc(OC6CCOCC6)nc45)cc3)nn2)cc1 (stereo not shown)
Technique: qRT-PCR
Host: mouse, PK-59 xenograft
Matrix: tumour
Notes: unit not given
Quantity: mRNA level
refers to: DUSP6; 30 mg/kg, 144 h; reference: vehicle: 0.244 and 0.246
refers to: ETV4; intravenous, 10 mg/kg, 24 h; reference: vehicle, same time point: 0.00191
refers to: DUSP6; intravenous, 30 mg/kg, 6 h; reference: vehicle, same time point: 0.0162 and 0.00894 and 0.0118
refers to: FOSL1; intravenous, 10 mg/kg, 144 h; reference: vehicle, same time point: 0.0106 and 0.0101 and 0.016
refers to: ETV4; intravenous, 30 mg/kg, 144 h; reference: vehicle, same time point: 0.0081 and 0.0104
refers to: FOSL1; 30 mg/kg, 24 h; reference: vehicle: 0.0405 and 0.04 and 0.036 and 0.0355 and 0.041
refers to: SPRY4; intravenous, 10 mg/kg, 72 h; reference: vehicle, same time point: 0.00105 and 0.00136 and 0.00121

Mixed results
PKMYT1: Membrane-associated tyrosine- and threonine-specific cdc2-inhibitory kinase (PKMYT1, Homo sapiens, UniProt Q99640)
UniProt Q99640, sequence (whole entry, looked up): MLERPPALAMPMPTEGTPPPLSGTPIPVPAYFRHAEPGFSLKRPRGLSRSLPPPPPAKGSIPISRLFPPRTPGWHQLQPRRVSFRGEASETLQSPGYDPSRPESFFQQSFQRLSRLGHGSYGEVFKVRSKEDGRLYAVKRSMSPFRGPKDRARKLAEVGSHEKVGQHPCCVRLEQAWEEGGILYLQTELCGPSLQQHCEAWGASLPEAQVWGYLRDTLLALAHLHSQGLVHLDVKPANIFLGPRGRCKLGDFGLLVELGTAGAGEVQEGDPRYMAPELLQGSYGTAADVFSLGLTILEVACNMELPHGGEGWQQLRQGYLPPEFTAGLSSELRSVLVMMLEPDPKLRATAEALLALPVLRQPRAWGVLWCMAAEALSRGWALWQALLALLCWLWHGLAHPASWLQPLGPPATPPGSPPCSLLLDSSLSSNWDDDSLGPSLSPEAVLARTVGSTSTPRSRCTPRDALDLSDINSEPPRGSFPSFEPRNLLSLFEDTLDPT
Cc1ccc(O)c(C)c1-c1cnc2[nH]c(-c3cnc(N4CCC(CN5CCN(c6ccc7c(c6)C(=O)N(C6CCC(=O)NC6=O)C7=O)CC5)CC4)nc3)cc2c1C#N (stereo not shown)  phospho-CDK1 (Thr14) level (HCC1569; CDK1 Thr14 phosphorylation, in-cell western; 12.35 nM; lower = stronger inhibition): 41.9 a.u. and 43.8 a.u.
Cc1ccc(O)c(C)c1-c1cnc2[nH]c(-c3cnc(N4CCC5(CC4)CC(N4CCN(c6ccc(N[C@H]7CCC(=O)NC7=O)cc6F)CC4)CO5)nc3)cc2c1C#N (single isomer, unassigned)  EC50 (PKMYT1; target engagement, NanoBRET): 12 nM
Cc1ncc(-c2cc3c(C(F)(F)F)c(-c4c(C)ccc(O)c4C)cnc3[nH]2)cn1  inhibition (PKMYT1; binding, HTRF; 41.15 nM): 87.1% and 87.7%
Cc1ccc(O)c(C)c1-c1cnc2[nH]c(-c3cnc(N4CCC5(CC4)CC(N4CCN(c6ccc7c(c6F)CN(C6CCC(=O)NC6=O)C7=O)CC4)CO5)nc3)cc2c1C#N (mixture of isomers)  pCDK1 (Thr14) level (HCC1569; in-cell western, refers to: CDK1 phospho-Thr14; 37.04 nM): 54.9 RLU and 52.4 RLU

Excerpt of the above (sample 3):
refers to: DUSP6; intravenous, 30 mg/kg, 6 h; reference: vehicle, same time point: 0.0162 and 0.00894 and 0.0118
refers to: FOSL1; intravenous, 10 mg/kg, 144 h; reference: vehicle, same time point: 0.0106 and 0.0101 and 0.016
